Experimental data of several laboratories.
Compare with care: the assays were run in different laboratories. ± marks the error that the study gave.
PTK6: Protein-tyrosine kinase 6 (PTK6, Homo sapiens, UniProt Q13882)
UniProt Q13882, sequence (whole entry, looked up): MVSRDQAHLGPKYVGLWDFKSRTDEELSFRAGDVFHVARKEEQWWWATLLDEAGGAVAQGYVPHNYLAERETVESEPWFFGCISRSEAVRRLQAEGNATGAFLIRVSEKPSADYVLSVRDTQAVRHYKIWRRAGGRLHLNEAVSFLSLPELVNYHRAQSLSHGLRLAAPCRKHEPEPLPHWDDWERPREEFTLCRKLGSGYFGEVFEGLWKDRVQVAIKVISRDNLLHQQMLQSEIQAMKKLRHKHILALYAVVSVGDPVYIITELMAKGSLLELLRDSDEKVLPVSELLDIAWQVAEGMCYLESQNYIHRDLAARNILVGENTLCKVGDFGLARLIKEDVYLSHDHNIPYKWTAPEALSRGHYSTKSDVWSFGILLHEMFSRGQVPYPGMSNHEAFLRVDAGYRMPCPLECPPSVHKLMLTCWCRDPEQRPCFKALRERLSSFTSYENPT
IDE: Insulin-degrading enzyme (IDE, Homo sapiens, UniProt P14735)
UniProt O96017, sequence (whole entry, looked up): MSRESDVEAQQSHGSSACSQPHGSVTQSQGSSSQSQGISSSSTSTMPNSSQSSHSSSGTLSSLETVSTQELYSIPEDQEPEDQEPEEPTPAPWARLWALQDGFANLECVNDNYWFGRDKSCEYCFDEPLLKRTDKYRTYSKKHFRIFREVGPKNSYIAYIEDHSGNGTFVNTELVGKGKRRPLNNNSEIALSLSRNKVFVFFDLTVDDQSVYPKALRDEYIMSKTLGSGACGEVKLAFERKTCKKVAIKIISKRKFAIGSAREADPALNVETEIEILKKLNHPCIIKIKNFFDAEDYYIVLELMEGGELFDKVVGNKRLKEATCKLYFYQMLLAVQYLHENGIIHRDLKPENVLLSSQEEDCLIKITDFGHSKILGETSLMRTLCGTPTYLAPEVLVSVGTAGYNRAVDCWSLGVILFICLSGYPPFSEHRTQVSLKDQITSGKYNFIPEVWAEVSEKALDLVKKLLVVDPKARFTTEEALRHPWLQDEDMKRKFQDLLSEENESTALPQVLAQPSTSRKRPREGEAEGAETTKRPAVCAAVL
UniProt Q9H2K8, sequence (whole entry, looked up): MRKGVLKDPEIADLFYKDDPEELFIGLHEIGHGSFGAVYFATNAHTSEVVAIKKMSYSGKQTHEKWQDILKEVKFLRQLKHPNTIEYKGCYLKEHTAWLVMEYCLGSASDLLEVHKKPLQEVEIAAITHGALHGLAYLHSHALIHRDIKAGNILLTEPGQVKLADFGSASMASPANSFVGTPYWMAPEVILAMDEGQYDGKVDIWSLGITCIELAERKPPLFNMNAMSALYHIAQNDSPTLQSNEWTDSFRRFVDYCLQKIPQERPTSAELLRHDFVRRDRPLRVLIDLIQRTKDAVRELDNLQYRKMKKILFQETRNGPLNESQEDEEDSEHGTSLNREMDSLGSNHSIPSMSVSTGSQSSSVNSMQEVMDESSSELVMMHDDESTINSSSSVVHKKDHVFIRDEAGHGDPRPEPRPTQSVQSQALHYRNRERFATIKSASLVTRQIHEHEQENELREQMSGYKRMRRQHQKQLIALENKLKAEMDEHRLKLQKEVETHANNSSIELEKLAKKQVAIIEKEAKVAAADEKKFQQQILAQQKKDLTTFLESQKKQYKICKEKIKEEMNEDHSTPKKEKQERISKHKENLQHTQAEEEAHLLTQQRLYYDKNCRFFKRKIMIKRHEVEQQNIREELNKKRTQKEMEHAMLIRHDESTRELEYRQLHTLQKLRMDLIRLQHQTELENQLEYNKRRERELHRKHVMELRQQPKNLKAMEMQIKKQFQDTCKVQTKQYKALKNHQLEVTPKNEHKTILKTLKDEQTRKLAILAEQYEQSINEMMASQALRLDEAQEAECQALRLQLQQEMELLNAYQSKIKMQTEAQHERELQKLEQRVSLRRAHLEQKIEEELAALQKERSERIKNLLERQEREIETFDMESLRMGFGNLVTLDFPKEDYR
UniProt O75747, sequence (whole entry, looked up): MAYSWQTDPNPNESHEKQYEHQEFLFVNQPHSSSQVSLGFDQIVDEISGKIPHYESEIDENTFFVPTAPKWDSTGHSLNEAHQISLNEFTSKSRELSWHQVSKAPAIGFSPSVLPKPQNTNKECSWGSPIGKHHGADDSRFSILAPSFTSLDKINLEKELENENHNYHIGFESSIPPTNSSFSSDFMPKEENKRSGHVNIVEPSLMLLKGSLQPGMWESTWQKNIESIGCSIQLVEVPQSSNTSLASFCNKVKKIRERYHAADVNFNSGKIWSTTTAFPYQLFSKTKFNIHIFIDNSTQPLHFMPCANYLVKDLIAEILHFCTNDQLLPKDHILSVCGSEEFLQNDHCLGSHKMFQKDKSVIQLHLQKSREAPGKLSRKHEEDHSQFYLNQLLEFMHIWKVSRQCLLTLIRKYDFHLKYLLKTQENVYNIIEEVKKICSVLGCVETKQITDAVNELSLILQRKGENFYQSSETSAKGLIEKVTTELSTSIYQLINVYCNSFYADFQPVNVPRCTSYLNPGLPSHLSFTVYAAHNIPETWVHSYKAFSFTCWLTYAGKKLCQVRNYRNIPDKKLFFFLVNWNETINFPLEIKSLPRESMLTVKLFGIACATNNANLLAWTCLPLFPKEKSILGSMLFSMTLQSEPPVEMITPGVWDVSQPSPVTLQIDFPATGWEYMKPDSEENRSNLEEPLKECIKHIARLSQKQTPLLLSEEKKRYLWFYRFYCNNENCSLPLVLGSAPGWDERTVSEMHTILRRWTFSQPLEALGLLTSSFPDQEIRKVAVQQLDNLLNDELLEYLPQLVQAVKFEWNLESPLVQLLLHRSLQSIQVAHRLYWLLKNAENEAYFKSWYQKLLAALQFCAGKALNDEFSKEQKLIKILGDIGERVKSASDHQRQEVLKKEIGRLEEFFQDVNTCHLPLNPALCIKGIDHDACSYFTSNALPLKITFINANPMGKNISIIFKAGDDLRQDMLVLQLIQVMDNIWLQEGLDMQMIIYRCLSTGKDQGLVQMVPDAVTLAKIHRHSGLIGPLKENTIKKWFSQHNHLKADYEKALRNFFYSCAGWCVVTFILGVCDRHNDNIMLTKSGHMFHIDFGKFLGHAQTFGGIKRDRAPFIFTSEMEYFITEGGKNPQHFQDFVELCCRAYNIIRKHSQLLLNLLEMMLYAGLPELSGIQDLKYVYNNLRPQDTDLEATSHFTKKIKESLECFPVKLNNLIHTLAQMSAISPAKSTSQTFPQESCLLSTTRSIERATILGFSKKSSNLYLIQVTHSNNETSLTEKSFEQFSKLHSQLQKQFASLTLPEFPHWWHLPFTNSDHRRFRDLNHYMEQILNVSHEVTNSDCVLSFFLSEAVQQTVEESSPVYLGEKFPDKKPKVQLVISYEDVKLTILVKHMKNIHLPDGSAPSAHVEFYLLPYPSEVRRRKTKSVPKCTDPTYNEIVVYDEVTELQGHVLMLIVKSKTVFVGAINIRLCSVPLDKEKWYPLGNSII
UniProt Q96PY6, sequence (whole entry, looked up): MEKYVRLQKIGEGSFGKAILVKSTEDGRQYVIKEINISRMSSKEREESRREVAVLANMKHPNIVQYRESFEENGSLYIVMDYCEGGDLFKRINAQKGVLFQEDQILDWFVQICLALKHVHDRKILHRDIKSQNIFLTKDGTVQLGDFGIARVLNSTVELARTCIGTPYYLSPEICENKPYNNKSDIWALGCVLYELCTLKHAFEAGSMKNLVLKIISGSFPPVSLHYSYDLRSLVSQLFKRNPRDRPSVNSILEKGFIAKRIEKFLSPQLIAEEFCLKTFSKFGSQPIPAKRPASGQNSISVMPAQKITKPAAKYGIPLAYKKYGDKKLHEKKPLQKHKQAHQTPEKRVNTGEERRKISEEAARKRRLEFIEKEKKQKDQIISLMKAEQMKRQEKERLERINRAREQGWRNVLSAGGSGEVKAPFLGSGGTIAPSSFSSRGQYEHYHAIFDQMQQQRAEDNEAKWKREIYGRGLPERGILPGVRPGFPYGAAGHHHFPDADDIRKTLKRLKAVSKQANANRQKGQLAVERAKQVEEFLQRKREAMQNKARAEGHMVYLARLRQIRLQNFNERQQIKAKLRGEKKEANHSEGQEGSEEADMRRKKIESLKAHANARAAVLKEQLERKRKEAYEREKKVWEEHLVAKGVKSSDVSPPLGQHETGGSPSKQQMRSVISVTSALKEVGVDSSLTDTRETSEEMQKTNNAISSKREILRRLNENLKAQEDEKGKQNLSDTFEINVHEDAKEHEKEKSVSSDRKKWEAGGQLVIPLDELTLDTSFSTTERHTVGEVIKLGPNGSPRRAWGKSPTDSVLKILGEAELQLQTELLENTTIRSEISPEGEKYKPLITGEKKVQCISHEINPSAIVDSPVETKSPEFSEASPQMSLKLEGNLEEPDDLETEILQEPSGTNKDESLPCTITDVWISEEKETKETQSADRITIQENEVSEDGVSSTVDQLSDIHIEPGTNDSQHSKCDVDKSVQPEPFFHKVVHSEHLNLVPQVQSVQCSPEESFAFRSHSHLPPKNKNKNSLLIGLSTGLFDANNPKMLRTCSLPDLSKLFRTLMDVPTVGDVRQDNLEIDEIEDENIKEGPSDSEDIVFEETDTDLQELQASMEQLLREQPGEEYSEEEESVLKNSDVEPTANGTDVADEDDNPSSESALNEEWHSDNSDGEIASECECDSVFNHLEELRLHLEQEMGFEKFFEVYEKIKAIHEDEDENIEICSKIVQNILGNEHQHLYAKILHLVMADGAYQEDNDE

SMILES	target or system	test	setting	scale	quantity	result
Cc1cc(Nc2cc(N3CCN(C)CC3)nc(Sc3ccc(NC(=O)C4CC4)cc3)n2)[nH]n1	TAOK3 (Homo sapiens, UniProt Q9H2K8)	kinase activity, KinaseProfiler	0.03 µM, species human	baseline: control	remaining activity	85%
C=CC(=O)N1CCC[C@@H](n2nc(-c3ccc(Oc4ccccc4)cc3)c3c(N)ncnc32)C1	PTK6	–	1 µM	–	remaining activity	67.9%
O=C(NC1CCCC1)N1CC(=O)N2[C@H](CO)[C@@H](c3ccc(-c4cccnc4)cc3)[C@@H]2C1	IDE	enzyme activity, inhibitor, fluorogenic kinetic	together with: Mca-RPPGFSAFK(Dnp)-OH substrate	–	EC50	14 µM
COc1cc(F)ccc1-c1ncnc(Nc2cccc(C[S@](C)(=N)=O)c2)n1	CHEK2 (Homo sapiens, UniProt O96017)	kinase activity	10 µM, together with: 10 µM ATP	–	remaining activity	91%
COc1cc(-c2cncc3c2CN(C)Cc2cc(N4CCNCC4)ccc2-3)cc(OC)c1OC	NEK1 (Homo sapiens, UniProt Q96PY6)	kinase activity	1 µM, human enzyme, together with: ATP 10 µM	baseline: DMSO control	remaining activity	112%
O=C(NC1CCC1)c1ccc2nc(-c3cccc(NS(=O)(=O)NCCN4CCCCC4)c3)cn2c1	PIK3C2G (Homo sapiens, UniProt O75747)	enzyme activity	10 µM	–	remaining activity	75%
CNc1ncc2c(/C=C/C(=O)N3CCC(OC)CC3)nn(Cc3cccc(C(F)(F)F)c3)c2n1	PASK (Homo sapiens, UniProt Q96RG2)	kinase activity, inhibitor	1 µM	baseline: untreated control	remaining activity	97%
COc1cc(Nc2ncc3c(n2)-c2ccc(Cl)cc2C(c2c(F)cccc2OC)=NC3)ccc1C(=O)O	STK24	kinase activity	1 µM	–	remaining activity	104%
CCCc1cc(C)[nH]c(=O)c1CNC(=O)c1cc(-c2ccnc(N3CCN(C)CC3)c2)cc2c1cnn2C(C)C	HBL-1	–	0.5 µM, 120 h	–	viability	129%
O=C(O)c1ccc(Nc2ncc3c(n2)-c2ccc(Cl)cc2C(c2c(F)cccc2F)=NC3)cc1	human TSSK1(h)	kinase activity	1 µM	–	remaining activity	107%
Cc1ccccc1-c1ccc([C@@H]2[C@H]3CN(C(=O)Cc4ccccn4)CC(=O)N3[C@H]2CO)cc1	IDE	enzyme activity, inhibitor, fluorogenic kinetic	together with: Mca-RPPGFSAFK(Dnp)-OH substrate	–	EC50	2 µM
COc1ccc(F)cc1C(=O)NCc1ccc(-c2nn([C@@H](C)C(F)(F)F)c(N)c2C(N)=O)cc1	PTK6	–	1000 nM, together with: ATP at Km	–	remaining activity	10.3 ± 0.3%
Oc1cc(O)c2cc(O)c(-c3cc(O)c(O)c(O)c3)[o+]c2c1	HBL-1	–	1 µM, 120 h	–	viability	111%

For quick reference, copied from above:
SMILES	target or system	test	setting	scale	quantity	result
COc1cc(Nc2ncc3c(n2)-c2ccc(Cl)cc2C(c2c(F)cccc2OC)=NC3)ccc1C(=O)O	STK24	kinase activity	1 µM	–	remaining activity	104%
